Measured values of several laboratories.
Numbers after ± are the reported error. In brackets after ≈: the same amount, converted by molar mass.

| Structure (SMILES) | test | system | setting | measurement | result |
| --- | --- | --- | --- | --- | --- |
| CO[C@H]1/C=C/O[C@@]2(C)Oc3c(C)c(O)c4c(c3C2=O)C2=NC3(CCN(CC(C)C)CC3)NC2=C(NC(=O)/C(C)=C\C=C\[C@H](C)[C@H](O)[C@@H](C)[C@@H](O)[C@@H](C)[C@H](OC(=O)c2cccnc2)[C@@H]1C)C4=O | – | CD-1 mouse | 10 mg/kg, single dose | t1/2 | 6.8 h |
| NC12CNCCNCC(NCc3ccc(CNC(=O)CCCC(=O)NCc4ccc(-c5nncnn5)cc4)cc3)(CNCCNC1)CNCCNC2.[64Cu+2] | – | athymic nude mice SW1222 xenograft, spleen | 12 h post injection, 24 h accumulation interval, with: huA33-TCO pretargeting | tissue uptake | 0.65 ± 0.17 %ID/g |
| CCC(CC)CNC(=N)NC(=N)NCCCCCCNC(=N)NC(=N)NCC(CC)CC | metabolic stability | mouse, liver microsomes | 2 µM | scaled CLint | 94.3 mL/min/kg |
| CC(C)Cn1c(SCC(=O)N2CCc3ccccc3C2)nc2cc(Cl)ccc2c1=O | – | male C57BL/6 mouse, brain | intraperitoneal, 10 mg/kg, 6 h | concentration | 764 nM |
| CC(=O)N[C@H](CC(=O)O)C(=O)N[C@H](Cc1c[nH]c2ccccc12)C(=O)N[C@H](Cc1ccccc1)C(=O)N[C@H](CCCCN)C(=O)N[C@H](C)C(=O)N[C@H](Cc1ccccc1)C(=O)N[C@H](Cc1ccc(O)cc1)C(=O)N[C@H](CC(=O)O)C(=O)N[C@H](CCCCN)C(=O)N[C@@H](C(=O)N[C@H](C)C(=O)N[C@H](CCC(=O)O)C(=O)N[C@H](CCCCN)C(=O)N[C@H](Cc1ccccc1)C(=O)N[C@H](CCCCN)C(=O)N[C@H](CCC(=O)O)C(=O)N[C@H](C)C(=O)N[C@H](Cc1ccccc1)C(N)=O)C(C)C | – | statin-treated high-risk CHD women, plasma | oral, 300 mg daily, day 1, 0 to 2 h, mean, undetectable set to 0 | AUC(0-t) | 7 ng·h/mL |
| CCC(=O)N[C@@H](C)C(=O)OCC(=O)N[C@@H](C)C(=O)O | – | water | pH 8, 50 °C | depolymerization half-life | 3.43 h |
| CCCC[C@H](NC(C)=O)C(=O)N[C@H]1CC(=O)NCCCC[C@@H](C(=O)N[C@@H](C(=O)N2CCC[C@@H]2C(N)=O)C(C)C)NC(=O)[C@H](Cc2c[nH]c3ccccc23)NC(=O)[C@H](CCCN=C(N)N)NC(=O)[C@@H](Cc2ccc3ccccc3c2)NC(=O)[C@@H]2CCCN2C1=O | – | healthy dogs, plasma | subcutaneous, 2.25 mg/kg per day, day 5, 30 min post-dose, median | plasma histamine | 13.2 ng/mL |
| C=C(c1ncc(C(=O)O)cn1)c1cc2c(cc1C)C(C)(C)CCC2(C)C | – | Sprague-Dawley rat, male, plasma | oral, 100 mg/kg, 6 h, sesame oil vehicle | HDL level | 52 ± 12.3 mg/dL |
| Cc1ccc(-c2ccc(-c3cc4sccc4o3)cn2)nc1 | – | EtOH | with: quinine bisulfate reference | fluorescence quantum yield | 0.66 |
| Cn1c(=O)oc2ccc(-c3ccc(CC(C#N)NC(=O)C4CNCCCO4)c(F)c3)cc21 (stereo not drawn) | measured: skin exfoliation | human volunteers | oral, 40 mg, single ascending dose fed | treatment-related adverse event incidence | 0% |
| O=c1c2ccccc2[se]n1CCCCCCn1[se]c2ccccc2c1=O | – | 5% Soluplus in water | 24 h, 25 °C, 50 mg/mL | solubility | 272 ± 22 µg/mL (≈ 569 µM) |
| CC(C)c1ccc(C(=O)Nc2ccc(CN)cc2)c(O)c1 | – | rat liver microsomes | 1 µM, with: NADPH | t1/2 | 0.367 h |
| CCCC[C@@H]1NC(=O)[C@@H](NC(=O)[C@H](CCC(=O)O)NC(=O)CNC(=O)CN2CCN(CC(=O)O)CCN(CC(=O)O)CCN(CC(=O)O)CC2)CCCCNC(=O)C[C@@H](C(N)=O)NC(=O)[C@H](C(C)C)NC(=O)[C@@H]2CCCN2C(=O)[C@H](CCCNC(=N)N)NC(=O)CNC(=O)[C@H](Cc2c[nH]c3ccccc23)NC(=O)[C@H](CCCNC(=N)N)NC(=O)[C@@H](Cc2ccccc2)NC(=O)[C@H](Cc2c[nH]cn2)NC(=O)[C@H](CCC(=O)O)NC1=O [gallium-67 labelled] | – | C57 mice with B16/F1 melanoma, stomach | intravenous, 0.037 MBq, 24 h | tissue uptake | 0.07 ± 0.04 %ID/g |
| COc1ccc(NC(=O)[C@H](CCCCN)NC(=O)c2cc(NC(=O)[C@H](CCCCN)NC(=O)c3cc(NC(=O)[C@H](CCCCN)NC(=O)c4cc(NC(C)=O)ccc4OC)ccc3OC)ccc2OC)cc1C(N)=O | ITC heats of dilution | TBS | pH 7.4, 25 °C, hexamer to monomer | enthalpy of dissociation | 15.6 kcal/mol |
| O=C([O-])CN1CCN(CC(=O)[O-])CCN(CC(=O)NCC2CCC(C(=O)NC(Cc3ccc4ccccc4c3)C(=O)NCCCCC(NC(=O)NC(CCC(=O)O)C(=O)O)C(=O)O)CC2)CCN(CC(=O)[O-])CC1.[44Sc+3] (stereo not drawn) | transmetallation stability | – | 4 h, 37 °C, with: Ca2+ 10 mM | intact complex | 97 ± 1.4% |

For quick reference, copied from above:
| Structure (SMILES) | test | system | setting | measurement | result |
| --- | --- | --- | --- | --- | --- |
| Cn1c(=O)oc2ccc(-c3ccc(CC(C#N)NC(=O)C4CNCCCO4)c(F)c3)cc21 (stereo not drawn) | measured: skin exfoliation | human volunteers | oral, 40 mg, single ascending dose fed | treatment-related adverse event incidence | 0% |
| O=c1c2ccccc2[se]n1CCCCCCn1[se]c2ccccc2c1=O | – | 5% Soluplus in water | 24 h, 25 °C, 50 mg/mL | solubility | 272 ± 22 µg/mL (≈ 569 µM) |
